Results gathered from unrelated publications.
A part holds a random share of what one study measured. Changes are numbered by the printed parent chain.

Series 1
Target: Histone acetyltransferase KAT6A, winged helix 1, GST fusion (KAT6A, Homo sapiens, UniProt Q92794, residues 1-85)
Method: protein binding microarray
Form: double-stranded DNA, one strand shown
Sample: in vitro
Tested at: not given
Setting: 8-mer, flanks averaged, mean of 2 arrays, mostly near background
Relative to: not given
Reading: higher = stronger binding
Target sequence (chain): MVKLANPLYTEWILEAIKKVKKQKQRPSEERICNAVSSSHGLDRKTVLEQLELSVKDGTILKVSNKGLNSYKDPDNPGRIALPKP
| Strand | E-score |
| --- | --- |
| GTACTATA | -0.0596 |
| CTCTCGTA | -0.175 |
| TGCGTCCA | 0.079 |
| AGCAGGCT | -0.0623 |
| AGAGGGTA | -0.149 |
| AGTGCTCA | -0.214 |
| GAGAACCA | -0.191 |
| ATCGGACC | 0.0844 |
| ACCTTAGT | -0.116 |
| AATTCTAT | -0.236 |
| CGTGGGCA | -0.0538 |
| TACGAGTA | -0.0271 |
| AAAGCCAG | -0.228 |
| ACGGTTGC | 0.268 |
| TACTTGCA | -0.264 |
| AAATATGA | -0.282 |
| GGTTACAC | -0.0562 |
| ACCCCGTC | 0.265 |
| AAGTAAAC | -0.146 |
| AATACCTG | -0.0879 |
| ACGCGCCG | 0.41 |
| ATACGCAG | 0.00609 |
| CCCTACTA | 0.0628 |
| CATGGGTC | -0.284 |
| CGGATGTC | 0.315 |

Series 2
Target: CCNF, cyclin fold, Cln2 fusion (human)
Method: yeast growth competition, sequencing
Sample: yeast
Setting: strong parent motif
Relative to: not given
Reading: higher = stronger binding
Starting sequence: CDC6 docking peptide (human); TLKGRRLVFDNQL
| Substitution | normalised enrichment score |
| --- | --- |
| D10F | 8.97 |
| F9C | 0.753 |
| T1R | 9.76 |
| L7I | 5.09 |
| L13H | 7.57 |
| L7K | 1.95 |
| T1I | 8.53 |
| R6I | 5.53 |
| L2I | 8.53 |
| V8L | 9.3 |
| Q12Y | 10.1 |
| R5T | 4.46 |
| N11D | 8.27 |
| L13R | 8.37 |

Series 3
Target: Centromere-binding protein 1, full length, His-tagged (CBF1, Saccharomyces cerevisiae, UniProt P17106, residues 1-351)
Chain of UniProt P17106 (whole entry, looked up): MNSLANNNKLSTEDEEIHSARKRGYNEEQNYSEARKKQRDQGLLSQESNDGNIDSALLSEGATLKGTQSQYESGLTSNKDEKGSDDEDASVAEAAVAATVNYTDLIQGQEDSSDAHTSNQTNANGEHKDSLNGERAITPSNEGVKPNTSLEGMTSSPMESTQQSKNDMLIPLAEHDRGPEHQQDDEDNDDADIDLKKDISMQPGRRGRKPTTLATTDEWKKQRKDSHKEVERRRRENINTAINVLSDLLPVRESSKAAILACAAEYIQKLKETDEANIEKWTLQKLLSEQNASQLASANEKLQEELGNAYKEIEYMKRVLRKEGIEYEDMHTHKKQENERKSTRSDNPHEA
Method: competition protein-binding microarray
Form: double-stranded DNA, one strand shown
Sample: in vitro
Tested at: 2 µM
Setting: whole 60-bp probe, lowest competitor level
With: Pho4 competitor, 0.05 µM
Reading: higher = stronger binding
| Strand | fluorescence intensity |
| --- | --- |
| TTGGATCTGACTCCTCACGTGGCAAATCTAAAATTGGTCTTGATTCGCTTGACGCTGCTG | 1490 a.u. |
| GTTGGGTTCTACCGTCACGCAATTGCTTCAAGGACCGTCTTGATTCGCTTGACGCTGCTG | 95.6 a.u. |
| CATACCCAACCTTTTCACGTGTCGTAAGATATTTGTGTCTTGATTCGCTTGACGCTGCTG | 835 a.u. |
| AGTAAGAACAATACCCACGTGCTTTTCAATGTACAAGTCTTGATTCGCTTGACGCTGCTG | 1960 a.u. |
| CGTCCTAGTGATTTTCACGTGCCATCCATGAGGAAGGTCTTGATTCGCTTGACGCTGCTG | 1340 a.u. |
| CCGATGTATTTCTGCCTCGTGCAAAATCTTGCGCCAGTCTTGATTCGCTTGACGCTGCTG | 215 a.u. |
| TATACAGCTTTGCCAAGCGTGCGGAATAGGGAATAAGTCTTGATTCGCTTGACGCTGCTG | 57.2 a.u. |
| AAAAGAAACAAAGCAAGCGTGCCGAGACTTAGGGTTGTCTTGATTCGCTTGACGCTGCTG | 62.3 a.u. |
| TGCGCAACAACTTGTCTAGTGGGTGTATGTCTAGAAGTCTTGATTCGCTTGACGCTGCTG | 68.2 a.u. |
| ACTGGTCAAAACCATCACGTGAAAAGGAAAACAAGAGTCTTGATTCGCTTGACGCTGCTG | 4170 a.u. |
| GCTCTTCATACCCCTCCCGTGGAACTAGTTCGGAAGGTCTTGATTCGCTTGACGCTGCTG | 68.3 a.u. |
| CGGGGTTAAGTTTGGTTGGTGGGTGGCTTGCAGCAGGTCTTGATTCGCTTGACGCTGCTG | 95.2 a.u. |
| CTAACGAAGGTTTTTCACGTGTGATACAAGCCAAGTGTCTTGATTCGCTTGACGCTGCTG | 654 a.u. |
| ACCAACAATTAAAAGCACGTGATGGGTTCCAGGACTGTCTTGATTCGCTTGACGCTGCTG | 8450 a.u. |
| ACATCTCCATTGATTTGTTCTAATAGCATTTCATCCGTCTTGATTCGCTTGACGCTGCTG | 76.7 a.u. |
| ATATTTTGGTAGCGCCGCGTGGGTAACAATGCAGTAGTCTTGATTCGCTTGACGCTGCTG | 143 a.u. |
| AGTACATTCACTTCTAACGTGACGGGTTTCACCACAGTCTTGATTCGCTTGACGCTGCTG | 178 a.u. |
| CACTTCGGTTAGCATCACTTTTAACCAATCTCTTTCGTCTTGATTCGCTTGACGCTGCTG | 67.1 a.u. |
| TTATCAGTTCTACAGCACGCAGAGAAAAGTAAACGAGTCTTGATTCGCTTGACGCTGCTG | 75.6 a.u. |
| CGTAACCAGACGAGTCACGTGTAATTTTGTAACTCAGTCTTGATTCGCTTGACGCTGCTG | 8970 a.u. |

Series 4
Target: RNA binding protein fox-1 homolog 2, RRM domain, GST-SBP tag (RBFOX2, Homo sapiens, UniProt O43251-10, residues 100-194)
Method: RNA Bind-n-Seq
Form: RNA
Sample: in vitro
Tested at: 365 nM
Setting: natural RNA segment, single round, ends assumed
Relative to: no-protein control
Reading: higher = stronger binding
Residues (chain): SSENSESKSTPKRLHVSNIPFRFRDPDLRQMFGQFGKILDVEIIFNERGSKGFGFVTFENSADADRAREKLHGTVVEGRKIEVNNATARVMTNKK
| Strand | RBNS enrichment (R) |
| --- | --- |
| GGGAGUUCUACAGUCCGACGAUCAACAUAUUGUGCCAGUGUUGCAACGUUUUAAACUGCUAACAGACCUUAAAAUAUCCCCCUACCUGGGUCCUCAGUGCUAUGUUUAAAGUGCUGCAGGGAUGGAGUGGCGUUGGAAUUCUCGGGUGCCAA | 0.45 |
| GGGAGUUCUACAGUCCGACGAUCAGCGGAUCCUGCGGCUCUCGCUGACCGAACAGUAGCGCCUCCUGCUGGGACCCUCGCCCACUCCACGCAGGACCCGGGUCUGCGCACCUGCCGAGCGGCUGCUGGAGUCUUGGAAUUCUCGGGUGCCAA | 0.289 |
| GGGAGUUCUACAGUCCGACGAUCUUCCGCAGCCGCCUCCUCUUCCUCCAGAGGCAACAUUCCUUAUUCACCAACUAGUCUCAAAAGAUUGUCUUAAGCCCUGACGAUGGCUGUCCCCAGCCACACCUUGGGGCUGGAAUUCUCGGGUGCCAA | 0.416 |
| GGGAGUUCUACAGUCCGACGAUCGUGAUUAUUUUCCUAAAUACAAAGACAAAUAAUUUACUUAUUUUAUGUUAAUUACGGGCAUGAAGCAAAAGGUUUCUUUGGGGAACAUGCAGUUUUGUAGUGCUGGGGUUUGGAAUUCUCGGGUGCCAA | 1.26 |
| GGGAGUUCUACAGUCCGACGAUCAUACAGUUCUCUUCCUUCUCCCCUCCCACCUUUCCCUGGCUUUUUGCCUCCAUUCCAUGAGGCAUACAGUAAGGCUGCCUGCUAGUAAGCAGUCACAUAAGUGGGUACCUUGGAAUUCUCGGGUGCCAA | 0.262 |
| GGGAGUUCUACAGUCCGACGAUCAGACUAACUUCCAGAAUUAUACUUUAACCCCUCCCAGAUAUGGUCCGCCUUUGGCAUUGUGUGUACAUCUGCAGUUUUGCAUGGUGGGUUGUUAAUAUUUCAAAUGUGUGUGGAAUUCUCGGGUGCCAA | 2.84 |
| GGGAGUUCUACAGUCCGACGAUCUGGACAUUCACGCUCAGUAGCUUAAGGGAAUAUGCGUUGUCUACAAUGGUGACUGAUCUCGAAUCAGGUCUUUUCCUGCAAGGACUAUGGAGUUCCAUUCUUGACAUCUAUGGAAUUCUCGGGUGCCAA | 0.373 |
| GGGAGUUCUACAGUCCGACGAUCGAGGUACUGCAAUAGAGUAUUUCAAAAUGGAAUCAGGAUCUGGUGGGCCUCAGAAAUUGUCUCUUUUCUGAGUUUCAAUUUGGUUCUCCUGGAUGUUUUGCUCUGUUUUGUGGAAUUCUCGGGUGCCAA | 0.456 |
| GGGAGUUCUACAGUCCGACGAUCAGGAAACAGCCCAUGGGGUUCAGCUCUGCAUCCUCCUCUUUAAGUGAAUUAAAGUGGUUUUCCCAGAGGGAAAGGUGUCAUGCUUGAGGGAACAAUGUCCUAGGCUGGGUUGGAAUUCUCGGGUGCCAA | 0.407 |
| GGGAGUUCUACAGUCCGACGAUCAUCAGCUCCUUCCUGGAGACUGCCCAGCUAAAGCAAUAUGCAUUUAAAUACAGUCUUCCAUUUGCAAGGGAAAAGUCUCUUGUAAUCCGAAUCUCUUUUUGCUUUCGAACUGGAAUUCUCGGGUGCCAA | 0.42 |
| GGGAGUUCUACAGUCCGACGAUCUGUUAAGUCUUUGGAUCUAUACUUAACUGAUGACCUAGAAGAGCGAUUCUCAAAAGUGUGAGUCCUGGACCAGCAGCAACAGCAUCACCGGGAACUUGUUAGAAAUGCACUGGAAUUCUCGGGUGCCAA | 0.723 |
| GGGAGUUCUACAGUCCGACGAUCUGCUUAAAAUGCAGAUUGGCUUUAAAAAGAAAAGAAAACAAACACACAUAUGCAAUGUUUUAAGGUCUGUCUUAAGAAGCUUUGGCCAAAUUGGGAUCCUAACCUAAGAUUGGAAUUCUCGGGUGCCAA | 0.27 |

Series 5
Target: FOSL1, bZIP domain (human)
Method: DHFR protein complementation
Sample: yeast
Setting: single substitutions, most at no-binding floor
Relative to: wild-type JUN-FOS pair
Reading: higher = stronger binding
Starting sequence: JUN, bZIP domain (human); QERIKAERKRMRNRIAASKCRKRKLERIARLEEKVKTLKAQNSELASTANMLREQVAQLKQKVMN; partner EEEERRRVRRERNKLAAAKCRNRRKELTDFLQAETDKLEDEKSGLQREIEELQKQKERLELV
| Substitution | binding fitness [natural log] |
| --- | --- |
| E32C | 0.108 |
| Q58S | -0.273 |
| L59W | -1.34 |
| A40V | -0.481 |
| A49W | -1.13 |
| A57V | -0.688 |
| L38G | -1.34 |
| A57M | -0.57 |
| K34A | -0.508 |
| L52Y | -1.34 |
| V35Y | -0.526 |
| K39D | -1.39 |
| K39F | -1.29 |
| V35K | -0.862 |
| N42S | -1.2 |
| S47M | -0.427 |

Series 6
Target: ABI1, truncated, D143A, DHFR fusion (Arabidopsis thaliana)
Method: DHFR PCA, deep sequencing
Sample: yeast
Setting: methotrexate growth selection, single substitutions
With: (+)-ABA 0 µM
Relative to: wild-type fitted maximum
Reading: higher = stronger binding
Starting sequence: PYL1, truncated, DHFR fusion (Arabidopsis thaliana); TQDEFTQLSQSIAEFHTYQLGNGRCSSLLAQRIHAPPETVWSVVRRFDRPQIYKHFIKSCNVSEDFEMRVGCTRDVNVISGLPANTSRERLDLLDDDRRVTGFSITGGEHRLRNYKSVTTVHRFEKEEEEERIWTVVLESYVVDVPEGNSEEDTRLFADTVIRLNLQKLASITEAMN; partner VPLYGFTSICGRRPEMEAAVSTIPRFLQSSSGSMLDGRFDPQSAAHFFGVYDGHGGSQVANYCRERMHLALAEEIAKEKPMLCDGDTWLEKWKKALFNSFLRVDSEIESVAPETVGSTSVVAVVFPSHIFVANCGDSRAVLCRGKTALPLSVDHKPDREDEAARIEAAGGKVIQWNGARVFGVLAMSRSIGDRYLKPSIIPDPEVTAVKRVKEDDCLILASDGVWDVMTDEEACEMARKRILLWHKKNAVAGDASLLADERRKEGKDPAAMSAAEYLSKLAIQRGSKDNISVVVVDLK
| Substitution | relative binding score |
| --- | --- |
| I57T | -1.7% |
| E147S | 8.55% |
| T120H | -4.03% |
| N77C | 47.8% |
| E131L | 31.6% |
| T154Y | -19.6% |
| I172F | -11.3% |
| K54W | -0.132% |
| E89W | 6.86% |
| R24N | 3.81% |
| Q2L | 60.6% |
| E64T | 20% |
| Y53D | -0.279% |
| T119Q | 2.49% |
| N61R | 43.4% |
| V161R | 4.41% |
| R113D | -6.23% |
| P83I | 4.29% |

Mixed results
| Substance | target | test | test system | conditions | scale | quantity | result |
| --- | --- | --- | --- | --- | --- | --- | --- |
| PhoQ, residues 284 288 289 292 302 303 WVSSAF | PhoP, residues 12 14 15 18 19 TPWLV (Escherichia coli, UniProt P23836) | Sort-seq, measured: YFP reporter | E. coli | PhoQ-PhoP variant library, with: 10 µM Mg2+ | relative to: high Mg2+ state, higher = stronger signaling | fold induction | 17.5 |

Excerpt of the above (series 2):
| Substitution | normalised enrichment score |
| --- | --- |
| L13H | 7.57 |
| L13R | 8.37 |
| R6I | 5.53 |
| D10F | 8.97 |
| N11D | 8.27 |
| F9C | 0.753 |
| T1I | 8.53 |
| L7K | 1.95 |
| V8L | 9.3 |
| T1R | 9.76 |
| L7I | 5.09 |
